Assay results pooled from the literature.
Protocols differ between the studies behind these lines. Several values in a cell are separate wells, animals, samples, runs or records. ± marks the error that the study gave.
Chain of UniProt P49116 (whole entry, looked up): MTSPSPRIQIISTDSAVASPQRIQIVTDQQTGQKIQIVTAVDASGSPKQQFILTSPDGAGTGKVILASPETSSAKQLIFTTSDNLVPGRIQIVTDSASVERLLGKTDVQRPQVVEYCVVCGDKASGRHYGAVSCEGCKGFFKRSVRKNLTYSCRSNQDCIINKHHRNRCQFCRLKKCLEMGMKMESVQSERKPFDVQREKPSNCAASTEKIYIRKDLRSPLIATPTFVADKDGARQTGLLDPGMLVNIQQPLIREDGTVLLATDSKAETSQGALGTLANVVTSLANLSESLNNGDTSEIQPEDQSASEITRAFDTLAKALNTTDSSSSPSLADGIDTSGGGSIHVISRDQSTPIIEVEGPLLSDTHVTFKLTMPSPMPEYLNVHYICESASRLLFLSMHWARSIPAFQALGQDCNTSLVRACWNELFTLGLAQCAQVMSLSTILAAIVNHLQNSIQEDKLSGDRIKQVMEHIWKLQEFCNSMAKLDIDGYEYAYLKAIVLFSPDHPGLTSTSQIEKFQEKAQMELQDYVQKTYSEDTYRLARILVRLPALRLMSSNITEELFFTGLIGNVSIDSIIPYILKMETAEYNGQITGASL

Structure (SMILES) | tested on | assay | test system | conditions | how to read | quantity | value
Cc1cc(C(=O)NC(C)(C)COc2cccc3c2C(N)=NS(=O)(=O)N3)cc(C)n1 | human peripheral blood lymphocytes | in vitro micronucleus test | 0.2% DMSO | 500 µg/mL, 24 h | – | micronucleated binucleated cells | 0.2%
CNC(=O)c1cc(Oc2ccc(NC(=O)Nc3ccc(Cl)c(C(F)(F)F)c3)c(F)c2)ccn1 | Nuclear receptor subfamily 2 group C member 2, ligand-binding domain (Homo sapiens, UniProt P49116) | SPR imaging | – | – | – | Kd | 0.00331 µM
C=C1C(=O)O[C@@H]2C[C@@]3(C)CCCC(=C)[C@@H]3C[C@H]12 | COS-7 | – | – | 10 µM, 24 h, 0.1% DMSO, unit not given | relative to: vehicle control | necrotic cells | 0.36 ± 0.11
Cc1ccc(C(C)C)cc1Oc1nccc(-c2c(-c3ccc(C(F)(F)F)cc3)ncn2C2CCNCC2)n1 | transformed sinusoidal endothelial cells (mouse) | cell viability, XTT | – | 4 h | – | concentration reducing viability | > 10 µM
COc1cc2c(c(OC)c1OC)C(=O)c1c(cc(C)c(O)c1OC)C2=O | HepaRG co-cultured with HK-2 | MTT | – | 16.67 µM, 48 h | relative to: untreated control | cell viability | 85.5 ± 6.91%
COc1cc2ncnc(Nc3ccc(Oc4ccccc4)cc3C)c2cc1OC.O=C(O)C(F)(F)F | COLO 205 (BRAF V600E) | resazurin | – | 0.3 µM, 72 h, with: trametinib 0 nM | – | viability | 0.874 fraction of control
Cc1cc(C)c(CNC(=O)c2cc(Cl)c3c(c2C)O[C@@](C)([C@H]2CC[C@H](N(C)C)CC2)O3)c(=O)[nH]1 | Caco-2 | – | – | 10 µM | – | Papp A to B | 0.398 ± 0.021 ×10⁻⁶ cm/s
COc1c(O[C@@H]2O[C@H](CO)[C@@H](O)[C@H](O)[C@H]2O)c(C)cc2c1C(=O)c1c(O)cccc1C2=O | HepaRG co-cultured with HK-2 | MTT | – | 266.67 µM, 48 h | relative to: untreated control | cell viability | 21.9 ± 1.47%
Nc1nc(=S)c2[nH]cnc2[nH]1 | OCI-Ly1 | – | – | 0.1 µM, 120 h | – | viability | 186%
[Cl][Ru][Cl].c1cnc2c(c1)ccc1cccnc12.c1cnc2c(c1)ccc1cccnc12.c1cnc2c(c1)ccc1cccnc12 | SK-MEL-28 | – | – | concentration not given, normoxia, with: green light 523 nm | – | photocytotoxicity | inactive
COc1cc2ncnc(Nc3ccc(Oc4ccccc4)c(C)c3C)c2cc1OC.Cl | COLO 205 (BRAF V600E) | resazurin | – | 0.1 µM, 72 h, unit not given, with: trametinib | relative to: DMSO | viability | 0.859
CC1CS(=O)(=O)CCN1/N=C/c1ccc([N+](=O)[O-])o1 (stereo not shown) | PMA-differentiated THP-1 macrophages | – | – | 200 µM, 24 h | – | viability | 76.1 ± 18.4%
COc1cc2c(c(O)c1OC)C(=O)c1c(cc(C)c(O)c1OC)C2=O | HepaRG co-cultured with HK-2 | MTT | – | 33.33 µM, 24 h | relative to: untreated control | cell viability | 75.4 ± 12.5%
CC(C)=CCC[C@@]1(C)C(CC[C@H]2[C@]3(C)CC[C@H](O)C(C)(C)O[C@H]3CC[C@@]2(C)O)=C(C)CC[C@H]1O | HEK293 MRP7 transfected | cell viability, MTT | – | 72 h | – | IC50 | > 50 µM
CCN1CCN(c2cc(N3CCN(CC)CC3)nc(NCCNc3ccnc4cc(Cl)ccc34)n2)CC1 | COS-7 | WST-8 | – | 10 µM, 24 h, 0.1% DMSO, unit not given | relative to: vehicle control | metabolic activity | 0.77 ± 0.36
N#Cc1ccc(O[C@H]2CC[C@H](NC(=O)c3ccc(N4CCC(CN5CCN(c6cc7c(cc6F)C(=O)N(C6CCC(=O)NC6=O)C7=O)CC5)CC4)nn3)CC2)cc1Cl (stereo partly shown) | LNCaP shLuc | cytotoxicity | – | 6 days | – | IC90 | 1.22 µM
O=C(NOCC(O)CO)c1cc(Br)c(F)c(F)c1Nc1ccc(I)cc1F (stereo not shown) | A-431 | WST-8 | – | 1 µM, IDO1 inhibitor study, with: IFN-γ | – | viability | 81.3%
CC(=O)Nc1cccc(-n2c(=O)n(C3CC3)c(=O)c3c(Nc4ccc(I)cc4F)n(C)c(=O)c(C)c32)c1 | SW1417 | – | – | 0.1 µM, 72 h, unit not given | relative to: DMSO | viability | 0.768 and 0.641 and 0.37 and 0.993 and 0.452 and 0.775
Cc1cc(O)c2c(c1)C(=O)c1cccc(O)c1C2=O | HepaRG co-cultured with HK-2 | MTT | – | 266.67 µM, 24 h | relative to: untreated control | cell viability | 98.5 ± 9.31%

Structure (SMILES) | tested on | assay | test system | conditions | how to read | quantity | value
C#Cc1cccc(Nc2ncnc3cc(OCCOC)c(OCCOC)cc23)c1 | primary mixed glial cells (astrocytes, oligodendrocytes) | cytotoxicity, sulforhodamine B | – | 24 h | – | IC50 | > 100 µM
O=C(O)c1cc(O)c2c(c1)C(=O)c1cccc(O[C@@H]3O[C@H](CO)[C@@H](O)[C@H](O)[C@H]3O)c1C2=O | HepaRG co-cultured with HK-2 | MTT | – | 16.67 µM, 24 h | relative to: untreated control | cell viability | 104 ± 9.29%
CCN(CC)CCCC(C)Nc1ccnc2cc(Cl)ccc12 (stereo not shown) | hiPSC-derived ventricular cardiomyocytes | IKr current, perforated patch clamp | – | 5 µM | – | peak current | 7.5 pA and 2.6 pA and 32.2 pA and 6.2 pA
CC(=O)c1c(C)cc2cc(O)cc(O[C@@H]3O[C@H](CO)[C@@H](O)[C@H](O)[C@H]3O)c2c1O | HepaRG co-cultured with HK-2 | MTT | – | 133.33 µM, 48 h | relative to: untreated control | cell viability | 69.4 ± 11.2%
COC(=O)c1cn(C)c2ccc(-c3cccnc3)cc12 | COS-7 | – | – | 30 µM, 24 h, 0.1% DMSO, unit not given | relative to: vehicle control | confluence | 0.77 ± 0.11
CCOC(=O)Nc1nc2ccc(NCc3ccc(OC(F)(F)F)cc3)cc2[nH]1 | sample A patient iPSC-derived NPCs | MTS | – | 10 µM, 24 h | relative to: vehicle | viability | 101 ± 1.14%
COc1ccc2c(Cc3ccccc3F)c3n(c(=O)c2c1OC)CCc1cc2c(cc1-3)OCO2 | HFL1 | cytotoxicity, CCK-8 | – | 24 h | – | IC50 | 40.3 µM
c1cc(-c2cc(N3CCNCC3)c3c4c(sc3n2)CCCC4)ccn1 | bovine primary retinal endothelial | Transwell | – | 1 µM, with: VEGF, RITC-dextran 70 kDa | – | VEGF-induced permeability | no effect
CCN(CC)Cc1cc(Nc2ccnc3cc(Cl)ccc23)ccc1O | COS-7 | WST-8 | – | 30 µM, 24 h, 0.1% DMSO, unit not given | relative to: vehicle control | metabolic activity | 0.6 ± 0.38
Cn1c(=O)c(F)c(Nc2ccc(I)cc2F)c2c(=O)n(C[C@@H](O)CO)cnc21 | A-431 | WST-8 | – | 1 µM, 25 h, with: IFN-γ | – | viability | 102%
COc1cccc(-c2ccc(NC(=O)C3=C(C(=O)O)CCC3)c(F)c2)c1 | COS-7 | – | – | 3 µM, 24 h, 0.1% DMSO, unit not given | relative to: vehicle control | apoptotic cells | 0.71 ± 0.14
O=C(O)c1cc(O)c2c(c1)C(=O)c1cccc(O)c1C2=O | HepaRG co-cultured with HK-2 | MTT | – | 133.33 µM, 24 h | relative to: untreated control | cell viability | 64.5 ± 8.54%
CCCCCCCCC(=O)c1cc(O)c(O)c(O)c1 | COS-7 | – | – | 10 µM, 24 h, 0.1% DMSO, unit not given | relative to: vehicle control | necrotic cells | 1.14 ± 0.12
COC[C@@H](CC(C)C)NC(=O)c1ccc(C)c(C)c1 | primary human lymphocytes | item: structural aberrations | – | 322 µg/mL, 4 h, without S9 | – | cells with aberrations | 0%
Clc1ccc(C(c2c[nH]c3ccccc23)c2c[nH]c3ccccc23)cc1 | COS-7 | WST-8 | – | 10 µM, 24 h, 0.1% DMSO, unit not given | relative to: vehicle control | metabolic activity | 0.16 ± 0.01
N=C1NC(=O)/C(=C/c2ccc(O)cc2)S1 | OCI-Ly1 | – | – | 0.5 µM, 120 h | – | viability | 166%
CN1CC[C@H](c2c(O)cc(O)c3c(=O)cc(-c4ccccc4Cl)oc23)[C@H](O)C1 | COS-7 | WST-8 | – | 100 µM, 24 h, 0.1% DMSO, unit not given | relative to: control | metabolic activity | 0.7 ± 0.25
COc1c(O)c(C)cc2c1C(=O)c1c(O)cccc1C2=O | HepaRG co-cultured with HK-2 | MTT | – | 33.33 µM, 48 h | relative to: untreated control | cell viability | 50.2 ± 3.11%

Excerpt of the above:
Structure (SMILES) | tested on | assay | test system | conditions | how to read | quantity | value
C#Cc1cccc(Nc2ncnc3cc(OCCOC)c(OCCOC)cc23)c1 | primary mixed glial cells (astrocytes, oligodendrocytes) | cytotoxicity, sulforhodamine B | – | 24 h | – | IC50 | > 100 µM
[Cl][Ru][Cl].c1cnc2c(c1)ccc1cccnc12.c1cnc2c(c1)ccc1cccnc12.c1cnc2c(c1)ccc1cccnc12 | SK-MEL-28 | – | – | concentration not given, normoxia, with: green light 523 nm | – | photocytotoxicity | inactive
CCN1CCN(c2cc(N3CCN(CC)CC3)nc(NCCNc3ccnc4cc(Cl)ccc34)n2)CC1 | COS-7 | WST-8 | – | 10 µM, 24 h, 0.1% DMSO, unit not given | relative to: vehicle control | metabolic activity | 0.77 ± 0.36
CC1CS(=O)(=O)CCN1/N=C/c1ccc([N+](=O)[O-])o1 (stereo not shown) | PMA-differentiated THP-1 macrophages | – | – | 200 µM, 24 h | – | viability | 76.1 ± 18.4%
